Results gathered from unrelated publications.
Numbered parts are unrelated; each lists some results of a single study. Changes are numbered by the printed parent chain.

Series 1 — method: RNA Bind-n-Seq; molecule type: RNA; medium: in vitro; tested at: 365 nM; reference: no-protein control; reading: higher = stronger binding
Target: RNA binding protein fox-1 homolog 2, RRM domain, GST-SBP tag (RBFOX2, Homo sapiens, UniProt O43251-10, residues 100-194)
Notes: natural RNA segment, single round, ends assumed
Target sequence (chain): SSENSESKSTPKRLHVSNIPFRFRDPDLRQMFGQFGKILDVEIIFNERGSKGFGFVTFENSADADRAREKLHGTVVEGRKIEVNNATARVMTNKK
`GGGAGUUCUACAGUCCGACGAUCUUGCUUCUCUCAAUACAAUAAGACAUUGCAGAAGCAAAAGGGUGGCCUCUGCUCCAGGCAAGGCAGCUGGCUCUGUCUGGGGCAUCGGCCUGGGGCUUGGGUGCCACGUGUGGAAUUCUCGGGUGCCAA`: “RBNS enrichment (R)” 0.43.
For `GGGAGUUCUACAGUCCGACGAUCUACCAGUGAGCUCUGUUGUACCAAGACCAGGUCUUCAGAGCAUCUGAACCACUGUGGCCUUCUCUUCUCAGCCUUCACUGUGACACGGGGGACAUUGAGUGACAAGCCUCUGGAAUUCUCGGGUGCCAA`, “RBNS enrichment (R)” read 0.297.
`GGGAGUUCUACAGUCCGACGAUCUUUAUUUUGUGGCUAGAAAGUCAGUUUUGUGUGUUUUUUUUUUUUUUUAUUUGAAGUGCCAAAUUAACUUUAGUCAGAAUGUGAGCAGAUGGCUAAGUUCUCUCCUCCCCUGGAAUUCUCGGGUGCCAA` — result for “RBNS enrichment (R)”: 0.642.
`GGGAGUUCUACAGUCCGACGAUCAUCUUUGUUGUUUUUGUAUUUAUUUGUAUGUUCAGAUCCAAAGGAUCCGUUGUAAAAAUAUAUAUGUGAAUAUAUAUACAUAACCAGUGCAAUCAGCUUUCAUUUCCUUUUGGAAUUCUCGGGUGCCAA` — result for “RBNS enrichment (R)”: 0.605.
`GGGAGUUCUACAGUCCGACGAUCGACUCUGCGCGAUAUCAAUACUGGCUAUUUUCUCUUCUCGCCGUAGUGCCGUUGGUUUCACAUGAUUGCACUUUUGUGGGUCACAAGUGAUACAUACGUGUAUUACUCGAUGGAAUUCUCGGGUGCCAA` — result for “RBNS enrichment (R)”: 0.249.
For `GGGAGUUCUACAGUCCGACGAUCUUAAAUUUGUUUCAAGAGCUAUUGAAUUUUCAAAUUUUCAGUGUAUUUAUAACUUUUAAGAACAUGAAGUAUUAGCUUAAUAUAGUUUUCUCUGUUGGUUUCUUCCUCAAUGGAAUUCUCGGGUGCCAA`, “RBNS enrichment (R)” read 0.66.
Under “RBNS enrichment (R)”, `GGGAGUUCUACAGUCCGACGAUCAUACUACAUUCAGCUUACCAUAAAUAUUUGUCCUUGAAGGGUUUGAUUUAAUAUUUUCACAGACUAGGCCAUGUGCAAAAUUAGAGUUCCCUGUGUAACCCCAGCCAGCAUGGAAUUCUCGGGUGCCAA` is recorded as 4.35.
`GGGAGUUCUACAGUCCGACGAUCGAAACCCCUAAUGUGUGUCCAUAUGAUCUUUCUGUACAUUCUAUUCUCUUACAAAUCUGUGCAUCAGGAAAAUAUGCAUACUUUCAAAUAGAACAGAGGUAUUUGCAACCUGGAAUUCUCGGGUGCCAA`: “RBNS enrichment (R)” 0.512.

Series 2 — method: RNA Bind-n-Seq; molecule type: RNA; medium: in vitro; tested at: not given; reference: input RNA pool; reading: higher = stronger binding
Target: RING finger protein unkempt homolog, zinc fingers 1-6, GST-SBP tag (UNK, Homo sapiens, UniProt Q9C0B0, residues 30-357)
Notes: RNA with constant flanks, human-mouse chimeric sites, ends assumed
Target sequence (chain): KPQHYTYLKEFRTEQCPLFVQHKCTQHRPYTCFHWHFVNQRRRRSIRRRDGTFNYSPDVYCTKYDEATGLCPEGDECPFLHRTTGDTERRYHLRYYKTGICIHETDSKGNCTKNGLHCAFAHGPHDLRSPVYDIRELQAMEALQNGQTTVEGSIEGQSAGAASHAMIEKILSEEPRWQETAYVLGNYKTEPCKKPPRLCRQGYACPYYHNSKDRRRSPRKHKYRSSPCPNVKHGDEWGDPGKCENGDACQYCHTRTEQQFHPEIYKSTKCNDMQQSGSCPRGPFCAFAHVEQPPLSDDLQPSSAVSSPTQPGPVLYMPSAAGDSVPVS
With `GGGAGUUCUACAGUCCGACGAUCAAAGCCCAAGUAUUUUGAAAAAACUCGAACAGAUUUGACAAGGGUAGCCAGCUUGGAGUCUAGCAACUUUGCCAAUGGUUUACCAAUCUGGGGGCUUGUUUUUCUUUCCCUUCCUUAAAUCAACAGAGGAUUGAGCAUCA` the bound/input enrichment was 0.282 ratio.
With `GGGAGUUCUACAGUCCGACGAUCGCGGCAGAAUCAUGGAGGACAUAAUGCAGCUCCCCAAAGCGCGCGUCAACGCCAGCAUGCUAGCUCAGUAUAUCGACAAGCCUGUCUGCUUCGUGGGGAAGCUGGAAAAGAUUCAUCCCACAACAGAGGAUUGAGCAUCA` the bound/input enrichment was 0.103 ratio.
The bound/input enrichment of `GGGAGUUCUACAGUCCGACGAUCUACUACUAUGAUGGUGAUAUUGGAAAUUAUUAUUAUGGCCAGGGUCAUCCCAUGAAGCCUCAUAGAAUCCGGAUGACCCAUAACUUGCUGCUAAAUUAUGGUUUAUACCGAAAAAUGGAACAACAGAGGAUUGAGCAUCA` is reported as 0.272 ratio.
With `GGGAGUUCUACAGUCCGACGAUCGGACAUCUGUCAAAUUGUUAUGUUCCUGUGAAACAAGUGAACACUCUGAUACACUUCAUCUGCUUGUACAUCUGUAUGAUAGAGAAAUGUAAAUAUGAAUAUAUUUAAUGAAUUCAACUUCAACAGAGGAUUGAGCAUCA` the bound/input enrichment was 0.165 ratio.
With `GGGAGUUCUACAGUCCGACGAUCCCUGCUCAGAUCACCAUGAAAGUAAUCCAAGGCCUAUAUAGUGGGGUCACCACAGUGGAACUGGACACUUUGGCUGCUGAAACAGCUGCGACCUUGACCACGAAGCACCCUGACUAUGCCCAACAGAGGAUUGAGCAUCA` the bound/input enrichment was 0.0791 ratio.
For `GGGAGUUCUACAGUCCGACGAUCAAAGUGAUGACUAUGUUUGUCCAACGACAGGUAUUUUCGGAGAGCAAAGAUGAGAUUGCUUUAGUCCUCUAUGGCACAGAUGGCACUGAUAAUGCCCUUGCUGGCAAGGACCAGUAUCAGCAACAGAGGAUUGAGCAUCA`, the bound/input enrichment was 0.19 ratio.
The bound/input enrichment of `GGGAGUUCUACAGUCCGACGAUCUCAUUUUGCUCGGGUUAUUCUUUCCUUUAGGAAAAGCCUAAAGAUUAGGUUGUAAGAAAAAUAGAAGCCAUGUUUCGAAGACCUGUGUUACAGGUAUUUCGUCAGUUUGUAAGACAUGAGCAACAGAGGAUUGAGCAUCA` is reported as 4.44 ratio.
For `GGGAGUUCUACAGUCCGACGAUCUCAAGGGGGCACUGCAGAGCCAUGCCUUUCCUUGACAUACAGAAAAAGCUGGGCAUCAGCCUGGACCGGCACUUUAUGUUCCUAAGCGCAGAACAGCCCUACAAGAUCGCCGCUCGGUGCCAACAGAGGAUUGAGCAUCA`, the bound/input enrichment was 0.0994 ratio.

Series 3 — target: CCND1, cyclin fold, Cln2 fusion (human); method: yeast growth competition, sequencing; medium: yeast; notes: strong parent motif; reference: not given; reading: higher = stronger binding
Parent: viral docking peptide; KGVKRKLFAEDSS; partner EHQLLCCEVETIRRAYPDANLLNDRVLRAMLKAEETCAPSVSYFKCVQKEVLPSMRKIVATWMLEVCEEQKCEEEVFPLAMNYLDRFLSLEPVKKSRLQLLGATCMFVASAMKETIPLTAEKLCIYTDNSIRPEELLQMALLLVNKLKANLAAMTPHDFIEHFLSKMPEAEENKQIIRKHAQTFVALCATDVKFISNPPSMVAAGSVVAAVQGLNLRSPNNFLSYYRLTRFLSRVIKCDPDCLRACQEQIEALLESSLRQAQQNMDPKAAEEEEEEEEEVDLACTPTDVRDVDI
`V3D`: “normalised enrichment score” -0.189.
Under “normalised enrichment score”, `K4Q` is recorded as 1.65.
`K6G` — result for “normalised enrichment score”: 0.272.
For `V3T`, “normalised enrichment score” read 1.59.
For `K6Q`, “normalised enrichment score” read 1.79.
For `R5E`, “normalised enrichment score” read 0.118.
For `L7V`, “normalised enrichment score” read 0.0575.
`L7D`: “normalised enrichment score” 0.0908.
Under “normalised enrichment score”, `S12E` is recorded as 2.2.
`A9V`: “normalised enrichment score” 1.37.
`V3A` — result for “normalised enrichment score”: 4.32.
Under “normalised enrichment score”, `K4H` is recorded as 0.543.
For `G2D`, “normalised enrichment score” read 1.62.
`F8D`: “normalised enrichment score” -0.183.
`D11N`: “normalised enrichment score” 0.503.

Series 4 — observed: peptide-MHC binding; molecule type: peptide; tested at: concentration not given
Target: HLA class I histocompatibility antigen, A alpha chain, allele A*80:01 (Homo sapiens, UniProt P04439)
For `VMGVIGFGF`, binding read “inactive”.
`EKAAWGVAL` — result for binding: “inactive”.
For `RTLGVFRYK`, binding read “inactive”.
`MTGVMRGNY`: binding “inactive”.
Under binding, `YTNYPFLFF` is recorded as “inactive”.
`ESEVDDPAM`: binding “inactive”.
